{"data": "Assay results gathered from unrelated publications", "ALB": "Albumin (ALB, Homo sapiens, UniProt P02768)", "note": "Compare with care: the assays were run in different laboratories. Several values in a cell are separate wells, animals, samples, runs or records. Numbers after ± are the reported error.", "sequence of UniProt Q62351 (whole entry, looked up)": "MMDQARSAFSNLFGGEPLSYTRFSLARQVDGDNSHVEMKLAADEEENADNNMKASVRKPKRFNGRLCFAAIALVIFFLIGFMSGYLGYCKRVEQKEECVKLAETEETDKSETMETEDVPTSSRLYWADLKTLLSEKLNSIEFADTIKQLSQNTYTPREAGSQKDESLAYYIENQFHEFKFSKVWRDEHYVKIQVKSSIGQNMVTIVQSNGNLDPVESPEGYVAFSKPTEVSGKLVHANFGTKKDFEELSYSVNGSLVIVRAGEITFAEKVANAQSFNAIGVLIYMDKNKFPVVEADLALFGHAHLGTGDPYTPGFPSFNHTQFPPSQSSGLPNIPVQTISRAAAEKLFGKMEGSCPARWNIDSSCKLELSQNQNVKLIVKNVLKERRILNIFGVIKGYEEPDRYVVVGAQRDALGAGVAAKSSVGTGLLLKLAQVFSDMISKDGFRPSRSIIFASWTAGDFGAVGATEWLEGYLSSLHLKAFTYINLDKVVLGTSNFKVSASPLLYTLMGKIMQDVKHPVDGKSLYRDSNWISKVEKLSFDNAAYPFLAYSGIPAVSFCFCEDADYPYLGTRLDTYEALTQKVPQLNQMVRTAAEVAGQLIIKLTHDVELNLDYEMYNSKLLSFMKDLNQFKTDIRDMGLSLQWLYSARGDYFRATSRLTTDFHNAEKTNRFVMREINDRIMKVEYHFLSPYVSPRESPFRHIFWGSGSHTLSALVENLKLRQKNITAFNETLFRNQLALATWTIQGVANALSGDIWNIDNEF", "sequence of UniProt P10959 (whole entry, looked up)": "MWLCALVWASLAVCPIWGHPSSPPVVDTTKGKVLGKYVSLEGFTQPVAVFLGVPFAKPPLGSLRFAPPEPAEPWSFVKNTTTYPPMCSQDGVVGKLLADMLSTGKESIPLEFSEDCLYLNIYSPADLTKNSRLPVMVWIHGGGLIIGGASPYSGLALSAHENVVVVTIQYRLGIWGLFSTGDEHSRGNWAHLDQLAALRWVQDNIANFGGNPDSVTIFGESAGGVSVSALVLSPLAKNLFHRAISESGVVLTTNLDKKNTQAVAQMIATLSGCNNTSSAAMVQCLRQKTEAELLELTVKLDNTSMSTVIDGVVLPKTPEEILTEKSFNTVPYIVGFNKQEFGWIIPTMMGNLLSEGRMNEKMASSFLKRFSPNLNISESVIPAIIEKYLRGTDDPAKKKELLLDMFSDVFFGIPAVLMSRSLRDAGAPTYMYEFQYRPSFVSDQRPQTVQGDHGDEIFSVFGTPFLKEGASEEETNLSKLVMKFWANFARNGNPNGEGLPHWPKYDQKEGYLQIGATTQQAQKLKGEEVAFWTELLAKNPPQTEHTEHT", "sequence of UniProt Q7Z2W7 (whole entry, looked up)": "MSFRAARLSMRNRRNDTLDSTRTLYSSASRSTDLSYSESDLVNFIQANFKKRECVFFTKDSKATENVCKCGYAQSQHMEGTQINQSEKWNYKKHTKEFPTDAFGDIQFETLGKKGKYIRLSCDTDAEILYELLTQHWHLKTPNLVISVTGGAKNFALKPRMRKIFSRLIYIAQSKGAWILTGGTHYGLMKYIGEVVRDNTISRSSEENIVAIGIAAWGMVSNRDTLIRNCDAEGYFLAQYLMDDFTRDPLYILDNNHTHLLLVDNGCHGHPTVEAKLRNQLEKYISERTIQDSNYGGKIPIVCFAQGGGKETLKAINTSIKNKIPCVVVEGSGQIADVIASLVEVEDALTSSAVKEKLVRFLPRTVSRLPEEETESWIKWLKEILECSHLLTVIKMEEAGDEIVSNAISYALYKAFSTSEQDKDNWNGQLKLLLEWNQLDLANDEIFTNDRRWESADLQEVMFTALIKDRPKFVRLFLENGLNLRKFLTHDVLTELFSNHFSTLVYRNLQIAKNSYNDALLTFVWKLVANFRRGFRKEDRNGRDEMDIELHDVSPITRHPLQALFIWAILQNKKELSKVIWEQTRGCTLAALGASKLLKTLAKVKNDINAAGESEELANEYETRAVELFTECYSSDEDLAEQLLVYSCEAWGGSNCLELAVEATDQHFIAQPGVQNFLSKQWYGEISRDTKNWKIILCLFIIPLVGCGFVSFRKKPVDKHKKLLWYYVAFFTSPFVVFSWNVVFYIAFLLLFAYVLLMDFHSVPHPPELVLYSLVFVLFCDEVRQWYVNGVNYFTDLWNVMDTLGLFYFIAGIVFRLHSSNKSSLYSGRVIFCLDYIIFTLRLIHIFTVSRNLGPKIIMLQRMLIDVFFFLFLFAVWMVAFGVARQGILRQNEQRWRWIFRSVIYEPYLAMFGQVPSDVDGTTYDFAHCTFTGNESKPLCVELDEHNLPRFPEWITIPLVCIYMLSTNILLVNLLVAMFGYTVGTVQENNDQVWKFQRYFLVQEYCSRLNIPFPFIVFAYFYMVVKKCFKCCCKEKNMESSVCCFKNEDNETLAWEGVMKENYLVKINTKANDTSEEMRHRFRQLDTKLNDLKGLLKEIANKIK", "sequence of UniProt Q92918 (whole entry, looked up)": "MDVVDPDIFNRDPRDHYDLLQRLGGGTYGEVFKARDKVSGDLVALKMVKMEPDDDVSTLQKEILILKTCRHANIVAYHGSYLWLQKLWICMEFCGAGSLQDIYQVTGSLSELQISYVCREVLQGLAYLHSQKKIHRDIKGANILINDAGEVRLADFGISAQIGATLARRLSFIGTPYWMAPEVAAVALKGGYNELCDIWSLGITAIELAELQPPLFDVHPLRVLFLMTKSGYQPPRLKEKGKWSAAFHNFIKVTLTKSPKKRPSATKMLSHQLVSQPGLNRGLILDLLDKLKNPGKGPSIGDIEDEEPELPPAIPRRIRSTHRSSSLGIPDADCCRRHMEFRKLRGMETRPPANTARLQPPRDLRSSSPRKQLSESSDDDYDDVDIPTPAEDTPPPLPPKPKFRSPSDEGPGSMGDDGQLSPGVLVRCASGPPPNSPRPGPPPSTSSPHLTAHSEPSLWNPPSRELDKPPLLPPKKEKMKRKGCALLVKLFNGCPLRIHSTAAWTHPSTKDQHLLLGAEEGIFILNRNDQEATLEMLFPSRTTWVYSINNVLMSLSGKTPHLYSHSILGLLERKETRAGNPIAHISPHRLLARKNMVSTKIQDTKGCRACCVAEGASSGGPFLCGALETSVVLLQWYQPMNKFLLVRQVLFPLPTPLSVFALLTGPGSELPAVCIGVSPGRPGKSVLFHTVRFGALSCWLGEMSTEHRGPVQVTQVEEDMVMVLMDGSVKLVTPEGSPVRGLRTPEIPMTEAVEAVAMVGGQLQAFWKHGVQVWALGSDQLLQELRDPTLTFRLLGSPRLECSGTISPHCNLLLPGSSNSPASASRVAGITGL", "sequence of UniProt O42275 (whole entry, looked up)": "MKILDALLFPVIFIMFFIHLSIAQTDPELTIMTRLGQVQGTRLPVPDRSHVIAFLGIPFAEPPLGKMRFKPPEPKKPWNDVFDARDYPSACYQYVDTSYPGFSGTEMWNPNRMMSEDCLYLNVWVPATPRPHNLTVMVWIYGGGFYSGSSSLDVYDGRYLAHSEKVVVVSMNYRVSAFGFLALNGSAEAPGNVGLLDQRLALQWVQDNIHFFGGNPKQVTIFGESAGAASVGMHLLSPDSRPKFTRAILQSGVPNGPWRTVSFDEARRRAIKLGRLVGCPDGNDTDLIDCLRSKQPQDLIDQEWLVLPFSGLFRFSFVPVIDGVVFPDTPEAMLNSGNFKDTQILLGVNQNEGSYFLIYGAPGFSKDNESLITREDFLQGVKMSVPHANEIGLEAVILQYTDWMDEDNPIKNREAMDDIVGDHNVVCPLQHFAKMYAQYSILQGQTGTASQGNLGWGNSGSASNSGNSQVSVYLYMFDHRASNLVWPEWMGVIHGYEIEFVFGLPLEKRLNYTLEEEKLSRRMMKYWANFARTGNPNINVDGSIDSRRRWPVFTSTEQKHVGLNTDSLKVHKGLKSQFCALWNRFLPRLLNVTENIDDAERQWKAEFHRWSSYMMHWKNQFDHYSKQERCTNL", "sequence of UniProt O75884 (whole entry, looked up)": "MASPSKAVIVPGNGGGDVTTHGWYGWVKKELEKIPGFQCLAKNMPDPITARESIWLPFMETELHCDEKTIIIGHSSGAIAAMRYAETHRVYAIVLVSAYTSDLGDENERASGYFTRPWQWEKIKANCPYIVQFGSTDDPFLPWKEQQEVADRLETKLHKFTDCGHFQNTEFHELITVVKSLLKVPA", "sequence of UniProt P09936 (whole entry, looked up)": "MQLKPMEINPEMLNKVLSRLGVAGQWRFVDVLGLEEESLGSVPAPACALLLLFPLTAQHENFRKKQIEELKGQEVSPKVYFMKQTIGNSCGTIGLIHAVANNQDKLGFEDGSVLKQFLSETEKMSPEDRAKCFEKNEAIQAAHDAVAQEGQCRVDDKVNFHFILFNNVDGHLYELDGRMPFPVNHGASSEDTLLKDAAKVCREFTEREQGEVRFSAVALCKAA"}
{"SMILES": "O=C(Nc1cnccc1Cl)N1CCN(Cc2ccc3c(c2)OC(F)(F)O3)CC1", "target": "kainate receptor, rat", "test": "binding", "setting": "50 µM, together with: [3H]kainic acid", "measurement": "inhibition", "value": "6%"}
{"SMILES": "COc1ccc(N2C(=O)N(c3c(C)cccc3Cl)Cc3cnc(Nc4ccc(C5CCN(C)CC5)cc4OC)nc32)nc1", "target": "cAMP-dependent protein kinase catalytic subunit alpha (PRKACA, Homo sapiens, UniProt P17612)", "test": "kinase activity", "setting": "0.5 µM", "measurement": "inhibition", "value": "6%"}
{"SMILES": "COc1cc(Nc2ncc(F)c(Nc3ccc4c(n3)NC(=O)C(C)(C)O4)n2)cc(OC)c1OC", "target": "Phosphatidylinositol 4-kinase beta (PI4KB, Homo sapiens, UniProt Q9UBF8)", "test": "binding, KINOMEscan", "setting": "10 µM, PIK4CB kinase", "measurement": "inhibition", "value": "66%"}
{"SMILES": "O=C(Nc1cccnn1)N1CCC(=Cc2cccc(Oc3ccc(C(F)(F)F)cn3)c2)CC1", "target": "Calcium/calmodulin-dependent protein kinase type IV (CAMK4, Homo sapiens, UniProt Q16566)", "test": "enzyme activity, inhibitor", "setting": "50 µM, together with: autocamtide-2", "measurement": "inhibition", "value": "52%"}
{"SMILES": "O=C(O)C(F)(F)C(F)(F)C(F)(F)C(F)(F)C(F)(F)C(F)(F)C(F)(F)F", "target": "ALB", "test": "ITC", "setting": "25 °C, first binding site, together with: HSA 20 µM", "measurement": "association constant", "value": "9.3e+06 M⁻¹"}
{"SMILES": "C[C@H]1CN(c2n[nH]c3nc(N[C@H]4CC[C@H](NS(=O)(=O)CCC(F)(F)F)CC4)ncc23)CCO1", "target": "Large ribosomal subunit protein uL5 (Homo sapiens, UniProt P62913)", "test": "Kinobeads competition, refers to: RPL11", "setting": "20 µM, unit not given", "scale": "reference: vehicle", "measurement": "remaining binding", "value": 1.17}
{"SMILES": "O=c1c2ccccc2oc2cc(OCCCCc3ccccc3)ccc12", "target": "Acetylcholinesterase (ache, Electrophorus electricus, UniProt O42275)", "test": "enzyme activity, inhibitor, Lineweaver-Burk plot", "setting": "0.36 µM", "scale": "higher = faster reaction", "measurement": "Vmax", "value": "0.0044 a.u."}
{"SMILES": "O=C1NC(=O)c2c1c1c3ccccc3n3c1c1c2c2ccccc2n1[C@H]1CC[C@@H]3O1", "target": "Transient receptor potential cation channel subfamily M member 8 (TRPM8, Homo sapiens, UniProt Q7Z2W7)", "test": "antagonist", "test system": "HEK293", "setting": "5 µM", "scale": "reference: control", "measurement": "remaining activity", "value": "101 ± 11%"}
{"SMILES": "COc1cc(-c2[o+]c3cc(O)cc(O)c3cc2O[C@@H]2O[C@H](CO)[C@@H](O)[C@H](O)[C@H]2O)cc(OC)c1O", "target": "ALB", "test": "van't Hoff analysis", "setting": "concentration not given", "measurement": "binding enthalpy change", "value": "-1.75 kcal/mol"}
{"SMILES": "O=C(CCl)Cc1ccc(F)cc1", "target": "Ubiquitin carboxyl-terminal hydrolase isozyme L1 (UCHL1, Homo sapiens, UniProt P09936)", "test": "covalent, intact protein LC-MS", "setting": "12.5 µM", "measurement": "labelling", "value": "33.8%"}
{"SMILES": "[2H]c1c([2H])c([C@]2([2H])CCCN2C(=O)C(C)(C)Oc2ccc3cn[nH]c3c2)c([2H])c([2H])c1C([2H])([2H])[2H]", "target": "Mitogen-activated protein kinase kinase kinase kinase 1 (MAP4K1, Homo sapiens, UniProt Q92918)", "test": "KINOMEscan", "setting": "1 µM", "scale": "reference: DMSO control", "measurement": "remaining binding", "value": "95%"}
{"SMILES": "Nc1ncnc2c1ncn2[C@@H]1O[C@H](COP(=O)(O)OP(=O)(O)NP(=O)(O)O)[C@@H](O)[C@H]1O", "target": "Cell cycle histidine kinase CckA, G318A; cytoplasmic region (Caulobacter vibrioides, UniProt Q9X688, G318A)", "test": "ITC", "setting": "without c-di-GMP", "measurement": "ΔH", "value": "-4.87 ± 0.195 kcal/mol"}
{"SMILES": "COc1cc(/C=C/c2ccc(O)cc2)cc(OC)c1", "target": "O-methyltransferase (Sorghum bicolor, UniProt A0A1B6PFV1, W279A)", "test": "isothermal titration calorimetry", "setting": "concentration not given, RSV+", "measurement": "binding stoichiometry N", "value": "1.12 ± 0.012 sites"}
{"SMILES": "CN1CCN(c2cc(-c3ccncc3)c(-c3ccc4ccccc4c3)nn2)CC1", "target": "Alpha-1D adrenergic receptor, Δ2-79 (ADRA1D, Homo sapiens, UniProt P25100)", "test": "antagonist, FLIPR", "setting": "10 µM", "measurement": "inhibition", "value": "17.7%"}
{"SMILES": "CC[C@@H](C)[C@@H](NC(=O)[C@@H](Cc1ccc(O)cc1)NC(=O)[C@H]1CCCN1C(=O)[C@@H](CCCNC(=N)N)NC(=O)[C@H](N)Cc1c[nH]cn1)C(=O)N[C@H](C)C(=O)N[C@H](Cc1c[nH]cn1)C(=O)N[C@H](CCCNC(=N)N)C(=O)N[C@H](CCCCNC(=O)c1cccc(S(=O)(=O)F)c1)C(=O)N[C@H](Cc1ccc(O)cc1)C(=O)N[C@H](CO)C(=O)N[C@H](Cc1ccccc1)C(N)=O", "target": "Transferrin receptor protein 1 (Tfrc, Mus musculus, UniProt Q62351)", "test": "flow cytometry", "test system": "RAW264.7", "setting": "6 h, pH 6, unit not given", "scale": "reference: 0 h", "measurement": "surface TFRC expression", "value": "0.993 and 1.02"}
{"SMILES": "O=C(c1ccc(Cl)cc1)N1CCN2C(=O)N(OC(=O)N3CCOc4ccccc43)C(=O)C2C1 (centres unmarked)", "target": "Serine hydrolase RBBP9 (Homo sapiens, UniProt O75884)", "test": "enzyme activity, inhibitor, MS-based ABPP", "test system": "SW-620 in situ", "setting": "10 µM, 2 h, 37 °C", "scale": "reference: compound over DMSO, lower = stronger inhibition", "measurement": "median ratio", "value": 1.1}
{"SMILES": "CN(C(=O)n1cnc(-c2ccc[n+]([O-])c2)c1)C1CCCCC1", "target": "Carboxylesterase 1C (Ces1c, Rattus norvegicus, UniProt P10959)", "test": "enzyme activity, ABPP", "test system": "rat, brain", "setting": "oral, 30 mg/kg/day, 7 days", "scale": "reference: vehicle", "measurement": "fold change", "value": -3.5}
{"note": "Repeated from above:"}
{"SMILES": "COc1cc(-c2[o+]c3cc(O)cc(O)c3cc2O[C@@H]2O[C@H](CO)[C@@H](O)[C@H](O)[C@H]2O)cc(OC)c1O", "target": "ALB", "test": "van't Hoff analysis", "setting": "concentration not given", "measurement": "binding enthalpy change", "value": "-1.75 kcal/mol"}
{"SMILES": "O=C(CCl)Cc1ccc(F)cc1", "target": "Ubiquitin carboxyl-terminal hydrolase isozyme L1 (UCHL1, Homo sapiens, UniProt P09936)", "test": "covalent, intact protein LC-MS", "setting": "12.5 µM", "measurement": "labelling", "value": "33.8%"}
